Experimental data pooled from the literature.
Every numbered part comes from another study and shows a few of its results, in no order. Changes are numbered by the printed parent chain.

Block 1
Target: Sal-like protein 4, full length isoform A (SALL4, Homo sapiens, UniProt Q9UJQ4, residues 1-1053)
Chain of UniProt Q9UJQ4 (whole entry, looked up): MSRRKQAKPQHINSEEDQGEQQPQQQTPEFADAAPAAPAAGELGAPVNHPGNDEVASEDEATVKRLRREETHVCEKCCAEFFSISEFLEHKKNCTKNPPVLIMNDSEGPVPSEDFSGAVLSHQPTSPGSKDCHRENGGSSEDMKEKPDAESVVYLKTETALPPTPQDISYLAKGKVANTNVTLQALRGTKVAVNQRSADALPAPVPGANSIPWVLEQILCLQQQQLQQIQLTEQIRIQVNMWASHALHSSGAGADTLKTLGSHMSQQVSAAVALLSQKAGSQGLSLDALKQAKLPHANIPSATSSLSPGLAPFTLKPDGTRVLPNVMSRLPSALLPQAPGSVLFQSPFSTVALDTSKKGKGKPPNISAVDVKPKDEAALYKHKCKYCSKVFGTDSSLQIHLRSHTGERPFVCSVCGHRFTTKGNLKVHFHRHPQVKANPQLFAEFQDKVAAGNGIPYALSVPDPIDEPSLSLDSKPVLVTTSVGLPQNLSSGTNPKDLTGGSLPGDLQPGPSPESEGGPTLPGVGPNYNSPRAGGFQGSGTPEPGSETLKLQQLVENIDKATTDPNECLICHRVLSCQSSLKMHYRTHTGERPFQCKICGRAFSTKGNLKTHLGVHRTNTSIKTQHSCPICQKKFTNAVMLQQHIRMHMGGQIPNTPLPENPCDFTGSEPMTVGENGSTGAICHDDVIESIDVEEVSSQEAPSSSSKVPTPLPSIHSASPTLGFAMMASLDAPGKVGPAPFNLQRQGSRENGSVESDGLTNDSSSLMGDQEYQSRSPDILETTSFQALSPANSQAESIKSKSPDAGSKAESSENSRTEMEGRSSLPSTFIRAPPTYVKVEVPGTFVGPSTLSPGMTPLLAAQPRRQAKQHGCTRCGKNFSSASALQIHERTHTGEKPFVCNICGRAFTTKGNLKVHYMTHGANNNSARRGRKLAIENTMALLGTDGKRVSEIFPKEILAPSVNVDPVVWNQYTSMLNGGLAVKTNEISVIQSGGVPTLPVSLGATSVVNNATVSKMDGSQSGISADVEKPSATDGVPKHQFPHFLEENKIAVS
Technique: universal PBM
Molecule type: double-stranded DNA, one strand shown
Medium: in vitro
Concentration: 600 nM
Notes: 8-mer, flanks averaged, mean of replicates
Reading: higher = stronger binding
Endpoint: E-score
CTACTGTC: 0.014
ATCATGGC: 0.0348
CGGAAAGC: -0.13
GAACATCA: 0.0555
ATGCGTGG: -0.169
ATCATGGG: -0.13
ATAATTTA: 0.41
ACTTGTCC: 0.00777
AGGTCGAC: -0.0781
CCGGGACA: -0.239
CGGGTATC: -0.214
AGAGAGAA: -0.0928
AGCATATC: 0.159

Block 2
Target: Interferon regulatory factor 7, full length, phosphomimetic (IRF7, Homo sapiens, UniProt Q92985, residues 1-503, S471D/S472D/S475D/S476D/S477D/S483D/S484D/S487D)
Chain of UniProt Q92985 (whole entry, unmodified, looked up): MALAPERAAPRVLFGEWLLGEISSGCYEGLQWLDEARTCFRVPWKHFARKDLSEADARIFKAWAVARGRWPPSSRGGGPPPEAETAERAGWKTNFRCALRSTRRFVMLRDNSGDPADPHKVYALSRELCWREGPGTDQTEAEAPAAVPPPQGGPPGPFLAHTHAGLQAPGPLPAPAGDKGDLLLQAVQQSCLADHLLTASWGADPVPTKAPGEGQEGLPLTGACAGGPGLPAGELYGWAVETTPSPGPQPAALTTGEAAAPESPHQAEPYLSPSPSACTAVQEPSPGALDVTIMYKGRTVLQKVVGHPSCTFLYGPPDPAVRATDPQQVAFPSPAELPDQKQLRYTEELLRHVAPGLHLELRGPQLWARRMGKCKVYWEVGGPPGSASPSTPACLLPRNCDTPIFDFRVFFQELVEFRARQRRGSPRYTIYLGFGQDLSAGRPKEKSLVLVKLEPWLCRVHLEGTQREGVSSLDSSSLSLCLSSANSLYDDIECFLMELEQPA
Technique: protein-binding microarray
Molecule type: double-stranded DNA, one strand shown
Medium: in vitro
Concentration: 2200 nM top
Notes: 60-bp whole probe
Added: salmon DNA 0.4 mg/ml
Relative to: random background probes
Reading: higher = stronger binding
Endpoint: fitted relative affinity
Constant ends, left off below: GCCTAGCAC … GTCTTGATTCGCTTGACGCTGCTG
TTAGGACTGGGACTGGGTTTGTGCTAG: -0.732 z-score
GACGGACTGGACTATCGGGCCGTGCTA: -0.867 z-score
TCATGTCTGGGATTTTGACTGTGCTAG: 0.364 z-score
AGACAGTTGAGTTCTGTTGCAGTGCTA: -0.128 z-score
GACGGTTTGGGGTTTCGGGACGTGCTA: 1.92 z-score
AACAGGAGCAGATGGGAAGTGTGCTAG: -0.539 z-score
GGCGGTATCCTTCTCCTGACGTGCTAG: 0.427 z-score
TTAGGTATCCTTCTCCTTTAGTGCTAG: 1.2 z-score
GTCGGTCTCGGTATCGGGACGTGCTAG: 0.803 z-score
GACGATATCAGACTGGAGAAGTGCTAG: -0.298 z-score
GACGATTTCGGGTATCGAGACGTGCTA: 3 z-score
TCATCTCTGCTTCTGTAACTGTGCTAG: 1.8 z-score
GACGGTTTCCTTCTCCTCACGTGCTAG: 3.22 z-score

Block 3
Target: DBP, bZIP domain (human)
Technique: DHFR protein complementation
Medium: yeast
Notes: single substitutions, most at no-binding floor
Relative to: wild-type JUN-FOS pair
Reading: higher = stronger binding
Endpoint: binding fitness
Starting sequence: JUN, bZIP domain (human); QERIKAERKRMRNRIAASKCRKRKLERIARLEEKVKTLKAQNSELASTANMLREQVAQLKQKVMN; partner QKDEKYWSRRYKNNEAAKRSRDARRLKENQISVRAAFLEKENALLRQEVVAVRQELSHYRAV
A29V: -1.49 natural log
V35L: -1.28 natural log
A57M: -1.45 natural log
Q41H: -1.61 natural log
A57P: -1.53 natural log
E54K: -1.5 natural log
R53G: -1.5 natural log

Single results of other studies
PhoQ, residues 284 288 289 292 302 303 AGGCYF
fold induction (PhoP, residues 12 14 15 18 19 NHFRA (Escherichia coli, UniProt P23836); Sort-seq, item: YFP reporter; E. coli; PhoQ-PhoP variant library, added: 10 µM Mg2+; relative to: high Mg2+ state, higher = stronger signaling): 5.13

A few entries again (single results of other studies):
PhoQ, residues 284 288 289 292 302 303 AGGCYF
fold induction (PhoP, residues 12 14 15 18 19 NHFRA (Escherichia coli, UniProt P23836); Sort-seq, item: YFP reporter; E. coli; PhoQ-PhoP variant library, added: 10 µM Mg2+; relative to: high Mg2+ state, higher = stronger signaling): 5.13
